Results from different studies.
Compare with care: the assays were run in different laboratories. ± marks the error that the study gave.

| SMILES | cell line | observed | technique | time | setting | IC50 |
| --- | --- | --- | --- | --- | --- | --- |
| CCCCn1cc(C(=O)O)c(=O)c2cc(F)c(N)c([N+](=O)[O-])c21 | HCT-116 | cell growth | SRB | 72 h | – | 133 ± 6.67 µg/mL |
| Cc1ccccc1C=NNC(=O)c1ccc(-c2nc3cc(F)ccc3[nH]2)cc1 | CCD-841 CoN | cytotoxicity | MTT | 24 h | 10% FBS | 210 µg/mL |
| CCCC(=O)Oc1c(C)c(OC)c2c(/C=C/c3ccccc3)c(CC)c(=O)oc2c1C | CL normal liver cells | cytotoxicity | sulforhodamine B | 72 h | – | > 50 µM |
| C[C@@H]1CCC2[C@]34OO[C@](C)(CC[C@@H]13)O[C@H]4OC[C@]2(C)O (stereo partly drawn) | CEM/ADR5000 (multidrug-resistant) | cell viability | XTT | – | 10% fetal calf serum | 90 ± 4.57 µM |
| O=C1N=C(N2N=C(c3cccs3)CC2c2ccc(F)cc2)SC1=Cc1ccc(O)cc1 (stereo not drawn) | MCF-10A | cell growth or viability | – | – | – | 72.8 µM |
| CC1=CC2(C)C(=C(C)C3C4CC(C)CC(C)C4C4Oc5ccc(cc5)CC5(O)NC(=O)C(=C(O)C2C43)C5Nc2ncnc3c2ncn3C2OC(CO)C(O)C2O)C1C (stereo not drawn) | MDA-MB-231 | cell growth or viability | ATP luminescence | 2 h | – | 45.4 µM |
| CCCC(CCC)C(=O)[O][Pt]([Cl])([Cl])[O]C(=O)C(CCC)CCC.N.N | HCT-116 p53+/+ | cytotoxicity | – | 72 h | – | 0.46 ± 0.07 µM |
| CC(C)COC1O[C@@H]2O[C@@]3(C)CC[C@H]4[C@H](C)CCC([C@H]1C)[C@@]24OO3 (stereo partly drawn) | CEM/ADR5000 (multidrug-resistant) | cell viability | XTT | – | 10% fetal calf serum | 7.96 ± 3.76 µM |
| COc1c(C)c(OS(=O)(=O)c2ccccc2)c(C)c(O)c1C(=O)/C=C/c1ccccc1 | CL normal liver cells | cytotoxicity | sulforhodamine B | 72 h | – | 29 µM |
| Cc1[nH][n+]([Pt-2]([Cl])([n+]2[nH]c(C)c(CSCc3ccccc3)c2C)[n+]2[nH]c(C)c(CSCc3ccccc3)c2C)c(C)c1CSCc1ccccc1.Cl | U-937 | cytotoxicity | 7-AAD flow cytometry | 24 h | – | 0.31 ± 0.02 µM |
| COc1ccc(C2=NN(C3=NC(=O)C(=Cc4ccc(O)cc4)S3)C(c3ccc(F)cc3)C2)cc1 (stereo not drawn) | MCF-10A | cell growth or viability | – | – | – | 55 µM |
| Cc1[nH][n+]([Pd-2]([Br])([Br])[n+]2[nH]c(C)c(CSC3CCCCC3)c2C)c(C)c1CSC1CCCCC1 | U-937 | cytotoxicity | 7-AAD flow cytometry | 24 h | – | 0.28 ± 0.04 µM |
| COc1c(C)c(OS(=O)(=O)c2ccccc2)c(C)c2c1C(=O)CC(c1ccccc1)O2 (stereo not drawn) | CL normal liver cells | cytotoxicity | sulforhodamine B | 72 h | – | > 50 µM |
| C[C@H]1C(OC(=O)CCC(=O)O)O[C@@H]2O[C@@]3(C)CC[C@H]4[C@H](C)CCC1[C@@]24OO3 (stereo partly drawn) | CEM/ADR5000 (multidrug-resistant) | cell viability | XTT | – | 10% fetal calf serum | 0.46 ± 0.03 µM |
| C[C@@H]1O[C@@H](OC(=O)/C=C/c2ccc(O)cc2)[C@H](OC(=O)/C=C/c2ccc(O)cc2)[C@H](O)[C@H]1O | MCF-10A | cytotoxicity | MTT | 48 h | – | 17.4 ± 0.86 µM |

Some of these lines once more:
| SMILES | cell line | observed | technique | time | setting | IC50 |
| --- | --- | --- | --- | --- | --- | --- |
| CC(C)COC1O[C@@H]2O[C@@]3(C)CC[C@H]4[C@H](C)CCC([C@H]1C)[C@@]24OO3 (stereo partly drawn) | CEM/ADR5000 (multidrug-resistant) | cell viability | XTT | – | 10% fetal calf serum | 7.96 ± 3.76 µM |
